Experimental data collected from several papers.
Parts stem from different laboratories: compare values within a part only.

Set 1
Target: Histone acetyltransferase KAT6A, winged helix 2, GST fusion (KAT6A, Homo sapiens, UniProt Q92794, residues 85-181)
Technique: protein binding microarray
Form: double-stranded DNA, one strand shown
Medium: in vitro
Concentration: not given
Notes: 8-mer, flanks averaged, mean of 2 arrays, mostly near background
Reference: not given
Direction: higher = stronger binding
Construct (chain): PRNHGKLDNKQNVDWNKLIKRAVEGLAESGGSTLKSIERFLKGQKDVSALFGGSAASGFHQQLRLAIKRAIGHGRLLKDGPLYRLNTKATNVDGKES
`CGTATGCC` gave an E-score of -0.0284.
`GTGGCTTA` gave an E-score of -0.122.
`AGGGCAAA` gave an E-score of -0.0308.
`GTAGCGCA` has an E-score of -0.0378.
The E-score of `GCTCCGTA` is reported as 0.0372.
For `ACCTACGT`, the E-score was -0.195.
`TGGACCAA` has an E-score of -0.074.
The E-score of `GAAGCGGC` is reported as 0.0572.
The E-score of `TCAAGTCA` is reported as -0.127.
With `GCTAACAC` the E-score was 0.0477.
The E-score of `CAAGAAAC` is reported as 0.161.
With `CCGCCCAA` the E-score was -0.0189.
The E-score of `GCTATCCC` is reported as 0.0329.
With `CGGTTGGC` the E-score was 0.272.
`CAGTCTGA` has an E-score of -0.076.
For `ATATCGGA`, the E-score was -0.0108.

Set 2
Target: RNA binding protein fox-1 homolog 2, RRM domain, GST-SBP tag (RBFOX2, Homo sapiens, UniProt O43251-10, residues 100-194)
Technique: RNA Bind-n-Seq
Form: RNA
Medium: in vitro
Concentration: 365 nM
Notes: natural RNA segment, single round, ends assumed
Reference: no-protein control
Direction: higher = stronger binding
Shared flanks, not repeated: GGGAGUUCUACAGUCCGACGAUC … UGGAAUUCUCGGGUGCCAA
Construct (chain): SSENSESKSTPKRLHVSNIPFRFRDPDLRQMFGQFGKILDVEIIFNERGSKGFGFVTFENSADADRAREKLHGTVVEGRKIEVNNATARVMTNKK
For `UCAGCAUACCAUGCCAAGGCACACCGACCUACCAGCCAAUAACUGUUCUGCCUCUGCCUUGAUACUGCCUCAGGAUUCCCUAUCCCAUACCCUGGGAAAUUUGAGGGACC`, “RBNS enrichment (R)” read 0.269.
`AGUGAGCAGGAACAAGUUAUAUUGCCACUGCUGUGGCAAAUUUUGGUGAACUUUUGGGGUCAUUAUAUCAAUUUUUUCUUUGGAUUCAAAUUGUAAUGUCCCCUGCAUUU` — result for “RBNS enrichment (R)”: 0.799.
Under “RBNS enrichment (R)”, `AUUGCCUCCAUCUCAAUGUGAAUGCACCAGGCUGAGGGUUCCCUAGCGCCUUGAGUCAAGGCCACUUUUCAGCCCAUCGAGCCCUGAGUUCUACUUGGUGUUUGUUCUCU` is recorded as 0.402.
`CAGCAGGUUCUAGUGCCUUGACCUGGGGUAGGACCGAGUGAAGGAGGAAGAGGGUAAAAGGGCACAGACUUCCCCAGCUCUGCCCUAAAUAAAAUAACAAUGCUGAUUCA`: “RBNS enrichment (R)” 0.939.
Under “RBNS enrichment (R)”, `UUUCUUGGCUGCAUGAAGGUUUUCUUUAGAAUCAGAAUUGUAGCCAGUUUCUUUGGCCAGAAGGAUGAAUACUUGGAUAUUACUGAAAGGGAGGGGUGGAGAUGGGUGUG` is recorded as 0.904.
`GACCCGGCCUUUCAAUGAGCUUAGCUUGUGCUCUGUUUCUGCUCUCUUAGGUCUAAACUAUGGUGUCAGUUUUAAUAGAACAAAAGUAUGCAUCUUGCCUUGGCUUGAGC`: “RBNS enrichment (R)” 2.35.
For `ACCAAGGAAGAAAGAUCGUUCUGAAGUUACCCUCUGUCAUACAUUUGGUCUCUUUGACUUGGUUUCUAUAAAUGUUUUUAAAAUGAAGUAAAGCUCUUCUUUACGAGGGG`, “RBNS enrichment (R)” read 0.659.
Under “RBNS enrichment (R)”, `AGUCCUCCACCCUCCCACUGCCGCCACCCCUACUGCUGCAGGCUCACAGACCUCAGUCAUGUGAUAAGCUAUGUUAUGGUUCUUUAUCUGUUUAAAAUAUGGAAUCUUCA` is recorded as 0.188.
`GACAAGCAGCAUCUGUCCCCCCCAGAGCCAUCUAGCUACUGACACUGCCCCCAGCUUUGCUUCUCACCAGCUCAUUAGGGCUCCCAGGUUAAAGUCCUUCAGUAUUUAUG` — result for “RBNS enrichment (R)”: 0.873.
Under “RBNS enrichment (R)”, `CUGUUGCAUACAGCUGAGUACAGUGAGCGGCUUCUGCACAUAUUUAACUCUCCCUAUAUAUUAACUCUCAAGUGCUGUAUUUUAAAAUUCAGCCCGUUUUUUAAAAAAGC` is recorded as 0.719.
`CUGCAUCCGAGUGGCCUUAUGACCGCAGAUGUCCUCUCGGCUGAAGACUGGAGGAAGUGAACACUGGAGUGAAGAAGCGGUCUGUGCGUUGGUGAAGAACACACAUCGAU` — result for “RBNS enrichment (R)”: 0.599.
`UUGUCUCCCCGCUGAAAAGAACAGGAUUCAAGUCCAGAGUUUUCAUCUUCAGCCUGUGAUCUGUCCAGGGACCCUUGGGAUCUGGGGCUUCCUGGCCUGGCCAGAGCUGG`: “RBNS enrichment (R)” 0.208.

Set 3
Target: RING finger protein unkempt homolog, zinc fingers 1-6, GST-SBP tag (UNK, Homo sapiens, UniProt Q9C0B0, residues 30-357)
Technique: RNA Bind-n-Seq
Form: RNA
Medium: in vitro
Concentration: not given
Notes: RNA with constant flanks, ends assumed
Reference: input RNA pool
Direction: higher = stronger binding
Shared flanks, not repeated: GGGAGUUCUACAGUCCGACGAUC … CAACAGAGGAUUGAGCAUCA
Construct (chain): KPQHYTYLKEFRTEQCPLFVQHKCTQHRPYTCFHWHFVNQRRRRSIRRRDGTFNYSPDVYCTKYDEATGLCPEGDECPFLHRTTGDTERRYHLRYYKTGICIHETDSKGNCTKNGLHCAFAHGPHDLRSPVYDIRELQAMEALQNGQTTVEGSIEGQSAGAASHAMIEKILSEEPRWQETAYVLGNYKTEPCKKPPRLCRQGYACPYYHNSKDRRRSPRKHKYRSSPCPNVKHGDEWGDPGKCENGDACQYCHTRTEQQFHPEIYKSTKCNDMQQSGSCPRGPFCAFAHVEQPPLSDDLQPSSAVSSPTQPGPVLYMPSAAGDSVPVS
`UGCUGCAGUAAAACACUGAAGGCUUUAAAAUGUUUUCUUGCAUAAAAGUCAAACUUUAAGCCGCUGCUUAUGAGGAUAGGGAAGGCAGGAAGCUAAUGUCUGUCUCAAGACACAGGACAG` gave a bound/input enrichment of 0.224 ratio.
With `GAUUAUGUGCCUGCCUUAAAAGGUUUGGGUGAGUGCCACCUGUUGCUGGGGAAGGUGGCCUCCGUGGAUUUUCUGGAUGGAAAAGCUGUGGACUAUGUGGAACAAGCGCUGGGAUAUUUC` the bound/input enrichment was 1.01 ratio.
`GCAUCUCCCUGCUCCCCUCAACCCCCUCCCACCCCAUCCACGCCCCCUACCUUUCCCAAUUUCCGUUUCAUGCAAUAAAAAGGCCAAACUUUUUAUUCCAUAAAACAAGAAGGACAAAAC` gave a bound/input enrichment of 1.32 ratio.
`CCAGGGGGUGAUCAAGUACAUGGGGCCGGCAGGAGCAAAGAAUCUGCAGAGUGUUGUGCUCCGUAAAAUGAAUUUUGAAUCUUUUGUAAAAGAUCUUCUUCUGGUUCGUCAGUAUAGAGU` gave a bound/input enrichment of 0.321 ratio.
With `CAUGUAGGAGCAAAGGCUGUCAUGUCUGUUGUGAGGGACCUGCUGACUAGGCUCUCUGGAACCCGGGCCGCCUGGCCCCUGGCAUUCUGAGGGGUGUGUGCUGCAGAGAGCAUUCAUUGU` the bound/input enrichment was 0.149 ratio.
With `UGUGAUCAUGCCAAUCCACAGCUUUCAAAUCCAAGUCCGUUUCAGACACUUGGGCUGGAUUCCGUAUUGGAAUGUGUCGCUAGGUACCAACCCAAGCAGCGUUCAAUGUUUACCUUUGUG` the bound/input enrichment was 0.124 ratio.
`AGGAAAUGCUGCAAUCAUCCGUAUCUUAUCAAAGGUGCUGAGGAGAAAAUACUUGGAGAAUUCCGAGAUACAUACAAUCCAUCUGCCUCUGAUUUUCAUCUGCAAGCAAUGAUCCAAUCU` gave a bound/input enrichment of 0.111 ratio.
`UCUCCCCCACCUCCUCCUCCUCCAGAAGAUUACGAAGAGGAGGAAGCUGCUGUGGUUGAGUACCGUGAUCCUUAUGCUGAAGAGGACCCACCGUGGGCUCCACGUUCUUACUUGGAAAAG` has a bound/input enrichment of 0.0885 ratio.
`UUUCCUCACAAAUGUGAAGUCUGUGAUAAAGGUUUUCAUCGUCCUUCAGAGCUUAAAAAACACCGUGAUAUUCAUAAGGGUAGGAAGAUUCACCAGUGUAGGCAUUGUGACUUUAAAACC` gave a bound/input enrichment of 0.214 ratio.
`CCAAAGCUGGCAGCACUUCUCCGUGUGUUCAGUACUGUGGUGAGGAGCAUUGGGGAACGCUUCCGCCCAAUUCGGGGUCCACCAAUUACAGAGGCAUACGUAACAGAUGUUCUAUACAGA` has a bound/input enrichment of 0.0957 ratio.
With `AUUCCCAAUGCUACACAACCAGAAAGUAAGGUGUUCUACUUGAAAAUGAAAGGAGAUUAUUUCCGGUAUCUUUCUGAAGUGGCAUCUGGAGACAACAAACAAACCACUGUGUCGAACUCC` the bound/input enrichment was 0.162 ratio.

Set 4
Target: Interferon regulatory factor 5, full length, phosphomimetic (IRF5, Homo sapiens, UniProt Q13568-2, residues 1-514, K96S/S451D/S453D/S456D/S462D)
Technique: protein-binding microarray
Form: double-stranded DNA, one strand shown
Medium: in vitro
Concentration: 250 nM
Notes: 60-bp whole probe
With: salmon DNA 0.4 mg/ml
Reference: random background probes
Direction: higher = stronger binding
Shared flanks, not repeated: GCCTAGCAC … GTCTTGATTCGCTTGACGCTGCTG
For `GACGGACTGATTATCCTGACGTGCTAG`, the log fluorescence was -0.172 z-score.
For `TTAGGTTTACTACTGCTTTAGTGCTAG`, the log fluorescence was 0.123 z-score.
The log fluorescence of `TTAGGTTTCGGTTTCGGTCAGTGCTAG` is reported as 11.9 z-score.
`TTGGGTTTCGGGTTTCGGTTAGTGCTA` gave a log fluorescence of 9.52 z-score.
`TCATGCTTCTGTATTCAACTGTGCTAG` has a log fluorescence of 0.286 z-score.
The log fluorescence of `GACGGTCTCGTTTTCGGGACGTGCTAG` is reported as 1.82 z-score.
The log fluorescence of `GACGGTTCCTTTTTCCTGACGTGCTAG` is reported as 0.407 z-score.
The log fluorescence of `TTAAGACTGGGGACTGGGTTAGTGCTA` is reported as -0.478 z-score.
For `TTAGGTTTCGACTATCGGTCAGTGCTA`, the log fluorescence was 9.24 z-score.
With `TCAGTTCTGGGAAATATTACTGTGCTA` the log fluorescence was 0.257 z-score.
The log fluorescence of `TCAATTCTAGCCTATAGAACTGTGCTA` is reported as 0.192 z-score.
`TTAGATCTCAGTCTTGATTAGTGCTAG` has a log fluorescence of 0.113 z-score.
The log fluorescence of `AACGGACTGGGGTATCGGGACGTGCTA` is reported as 0.104 z-score.
The log fluorescence of `CATTTTCTCTTATTCTAACAGTGCTAG` is reported as 2.59 z-score.
For `TCATTTCTCTCTGTGACACTGTGCTAG`, the log fluorescence was 1.69 z-score.
`CTAGATATCAGTATCGATTAGTGCTAG` gave a log fluorescence of 7.86 z-score.
`GACGAACTGAGATTGGAGACGTGCTAG` gave a log fluorescence of -0.365 z-score.
`TTTGGTATCGGGACTGGGTTAGTGCTA` gave a log fluorescence of 3.85 z-score.
`TTAGATGTCAGACTGGATTAGTGCTAG` gave a log fluorescence of -0.00622 z-score.
`GACGGACTGGACACTGGGTACGTGCTA` has a log fluorescence of -0.668 z-score.
`GACGGACTGGGCACTGGGGACGTGCTA` has a log fluorescence of -0.68 z-score.
With `GAGGAACTGGGGTTTCGAGACGTGCTA` the log fluorescence was 0.953 z-score.
`GACGATATCAGACTGGAGACGTGCTAG` has a log fluorescence of 0.357 z-score.
With `GACGGTTTCCTTAACCTGACGTGCTAG` the log fluorescence was 0.364 z-score.
`TAAGGTATCCTACTGCTTTAGTGCTAG` has a log fluorescence of -0.275 z-score.

For quick reference, copied from above (set 1):
`CGTATGCC` gave an E-score of -0.0284.
`GTGGCTTA` gave an E-score of -0.122.
`AGGGCAAA` gave an E-score of -0.0308.
`GTAGCGCA` has an E-score of -0.0378.
The E-score of `GCTCCGTA` is reported as 0.0372.
For `ACCTACGT`, the E-score was -0.195.
`TGGACCAA` has an E-score of -0.074.
The E-score of `GAAGCGGC` is reported as 0.0572.
The E-score of `TCAAGTCA` is reported as -0.127.
